Assay results collected from several papers.
Lines come from different studies, so protocols differ. Values joined by “and” are separate records of one study, mostly repeats; a detail may differ. ± marks the error that the study gave. ≈ marks a conversion by molar mass, not a printed value.
KCNJ13 M125R: Inward rectifier potassium channel 13 (KCNJ13, Homo sapiens, UniProt O60928, M125R)
Squalene synthase ERG9: Squalene synthase ERG9 (Saccharomyces cerevisiae, UniProt P29704)
SUMO-activating enzyme subunit 2 with SAE1: SUMO-activating enzyme subunit 2, with SAE1 (Homo sapiens, UniProt Q9UBT2)
hdac6 CD2 catalytic domain: Histone deacetylase 6, CD2 catalytic domain (hdac6, Danio rerio, UniProt F8W4B7)
pol NS2B-NS3 protease: Genome polyprotein, NS2B-NS3 protease (pol, Dengue virus type 3, UniProt Q6YMS4)
Beta-glucuronidase: Beta-glucuronidase (Streptococcus agalactiae serotype V, UniProt Q8E0N2)
HSP90AA1: Heat shock protein HSP 90-alpha (HSP90AA1, Homo sapiens, UniProt P07900)
uidA: Beta-glucuronidase (uidA, Escherichia coli, UniProt P05804)
CDPK1: Calmodulin-domain protein kinase 1 (CDPK1, Toxoplasma gondii, UniProt Q9BJF5)

Amino acid sequences for entries named in this document (tags omitted). Residues count along the entry.
UniProt O60928, whole entry M125R: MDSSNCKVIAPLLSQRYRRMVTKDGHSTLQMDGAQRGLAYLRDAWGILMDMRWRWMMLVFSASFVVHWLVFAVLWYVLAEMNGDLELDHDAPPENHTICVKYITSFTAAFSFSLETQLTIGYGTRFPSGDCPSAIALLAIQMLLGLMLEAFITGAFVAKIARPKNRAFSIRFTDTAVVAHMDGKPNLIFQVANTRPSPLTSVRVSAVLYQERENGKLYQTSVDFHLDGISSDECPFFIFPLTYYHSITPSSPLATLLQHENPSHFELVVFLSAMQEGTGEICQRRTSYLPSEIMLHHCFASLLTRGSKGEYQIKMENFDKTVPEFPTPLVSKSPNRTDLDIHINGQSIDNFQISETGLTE
UniProt P29704, 1-420 limits assumed: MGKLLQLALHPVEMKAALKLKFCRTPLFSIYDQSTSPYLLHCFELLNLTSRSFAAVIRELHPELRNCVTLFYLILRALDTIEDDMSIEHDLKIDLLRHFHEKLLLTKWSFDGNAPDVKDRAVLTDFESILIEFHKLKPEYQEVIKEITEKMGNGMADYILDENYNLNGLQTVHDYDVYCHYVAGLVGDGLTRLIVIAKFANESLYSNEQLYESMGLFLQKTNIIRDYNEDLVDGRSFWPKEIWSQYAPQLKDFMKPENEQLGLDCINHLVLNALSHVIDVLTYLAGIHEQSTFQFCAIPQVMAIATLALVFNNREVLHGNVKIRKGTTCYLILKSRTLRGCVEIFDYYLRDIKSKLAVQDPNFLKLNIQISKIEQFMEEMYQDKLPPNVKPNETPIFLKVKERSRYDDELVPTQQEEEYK
UniProt Q8E0N2, whole entry: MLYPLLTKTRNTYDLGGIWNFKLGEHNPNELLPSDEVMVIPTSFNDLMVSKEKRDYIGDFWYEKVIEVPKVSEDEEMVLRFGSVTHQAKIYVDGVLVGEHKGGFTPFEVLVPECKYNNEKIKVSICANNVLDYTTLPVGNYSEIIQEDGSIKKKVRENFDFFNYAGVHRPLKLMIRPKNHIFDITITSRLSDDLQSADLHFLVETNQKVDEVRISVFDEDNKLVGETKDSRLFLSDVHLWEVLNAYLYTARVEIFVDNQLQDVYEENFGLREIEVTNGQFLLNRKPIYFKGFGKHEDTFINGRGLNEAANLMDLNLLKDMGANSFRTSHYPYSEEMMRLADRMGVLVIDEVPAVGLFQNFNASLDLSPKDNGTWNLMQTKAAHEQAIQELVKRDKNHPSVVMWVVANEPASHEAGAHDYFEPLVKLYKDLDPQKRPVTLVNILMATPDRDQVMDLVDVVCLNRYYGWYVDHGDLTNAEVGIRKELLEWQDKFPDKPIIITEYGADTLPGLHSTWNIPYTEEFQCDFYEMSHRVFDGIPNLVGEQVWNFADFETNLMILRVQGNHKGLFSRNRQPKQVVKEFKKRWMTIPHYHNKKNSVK
UniProt P05804, whole entry: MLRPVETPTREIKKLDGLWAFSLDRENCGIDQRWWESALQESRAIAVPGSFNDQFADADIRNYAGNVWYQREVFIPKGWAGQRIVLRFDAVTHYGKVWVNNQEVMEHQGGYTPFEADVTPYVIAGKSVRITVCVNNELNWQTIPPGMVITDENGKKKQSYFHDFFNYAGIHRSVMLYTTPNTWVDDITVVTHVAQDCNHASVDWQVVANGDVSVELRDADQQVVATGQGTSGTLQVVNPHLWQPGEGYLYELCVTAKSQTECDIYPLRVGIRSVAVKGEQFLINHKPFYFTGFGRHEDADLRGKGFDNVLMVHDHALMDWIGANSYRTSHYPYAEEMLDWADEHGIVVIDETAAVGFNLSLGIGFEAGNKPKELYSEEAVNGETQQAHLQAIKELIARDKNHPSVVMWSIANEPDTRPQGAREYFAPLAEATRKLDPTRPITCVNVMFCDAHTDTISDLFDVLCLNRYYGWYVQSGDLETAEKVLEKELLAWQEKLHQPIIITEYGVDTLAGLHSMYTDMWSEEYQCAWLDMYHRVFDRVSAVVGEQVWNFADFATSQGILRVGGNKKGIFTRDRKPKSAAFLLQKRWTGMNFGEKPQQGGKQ
UniProt Q00959, 23-1464 limits assumed: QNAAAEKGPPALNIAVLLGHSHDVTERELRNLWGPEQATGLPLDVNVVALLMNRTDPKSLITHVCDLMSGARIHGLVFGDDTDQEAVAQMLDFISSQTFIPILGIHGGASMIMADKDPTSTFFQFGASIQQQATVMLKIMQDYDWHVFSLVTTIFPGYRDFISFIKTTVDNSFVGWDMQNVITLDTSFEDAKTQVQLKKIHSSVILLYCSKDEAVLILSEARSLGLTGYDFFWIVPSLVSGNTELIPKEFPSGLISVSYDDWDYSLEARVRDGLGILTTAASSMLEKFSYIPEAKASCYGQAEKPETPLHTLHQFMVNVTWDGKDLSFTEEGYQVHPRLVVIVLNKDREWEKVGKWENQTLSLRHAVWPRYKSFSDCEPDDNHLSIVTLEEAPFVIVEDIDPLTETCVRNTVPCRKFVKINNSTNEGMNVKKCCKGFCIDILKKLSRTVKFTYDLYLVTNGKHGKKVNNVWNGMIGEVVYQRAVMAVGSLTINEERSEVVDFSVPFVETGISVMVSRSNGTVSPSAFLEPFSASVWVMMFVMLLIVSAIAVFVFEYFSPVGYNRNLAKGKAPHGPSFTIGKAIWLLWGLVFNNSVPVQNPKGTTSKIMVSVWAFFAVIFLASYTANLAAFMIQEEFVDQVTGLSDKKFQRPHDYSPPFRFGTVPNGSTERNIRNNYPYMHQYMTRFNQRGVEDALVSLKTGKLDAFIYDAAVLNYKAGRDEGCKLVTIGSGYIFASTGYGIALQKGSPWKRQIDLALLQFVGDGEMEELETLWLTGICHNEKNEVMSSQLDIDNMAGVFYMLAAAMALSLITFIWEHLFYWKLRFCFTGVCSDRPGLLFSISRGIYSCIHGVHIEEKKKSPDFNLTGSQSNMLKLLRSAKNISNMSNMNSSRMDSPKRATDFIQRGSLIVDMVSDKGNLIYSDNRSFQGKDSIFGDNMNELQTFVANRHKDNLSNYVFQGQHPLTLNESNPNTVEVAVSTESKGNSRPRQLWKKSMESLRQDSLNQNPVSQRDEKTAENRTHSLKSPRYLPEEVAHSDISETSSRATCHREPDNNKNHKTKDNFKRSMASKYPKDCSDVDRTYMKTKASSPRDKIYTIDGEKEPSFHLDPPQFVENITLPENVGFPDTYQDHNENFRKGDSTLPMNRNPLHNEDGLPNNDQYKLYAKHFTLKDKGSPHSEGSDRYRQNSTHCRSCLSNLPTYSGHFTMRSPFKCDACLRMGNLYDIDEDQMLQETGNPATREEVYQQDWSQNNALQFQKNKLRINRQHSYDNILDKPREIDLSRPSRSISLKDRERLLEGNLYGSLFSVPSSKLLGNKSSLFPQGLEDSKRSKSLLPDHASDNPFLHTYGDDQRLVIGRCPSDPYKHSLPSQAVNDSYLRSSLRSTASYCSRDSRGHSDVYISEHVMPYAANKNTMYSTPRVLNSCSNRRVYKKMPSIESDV
UniProt Q07440, 1-152 P104K/C113S limits assumed: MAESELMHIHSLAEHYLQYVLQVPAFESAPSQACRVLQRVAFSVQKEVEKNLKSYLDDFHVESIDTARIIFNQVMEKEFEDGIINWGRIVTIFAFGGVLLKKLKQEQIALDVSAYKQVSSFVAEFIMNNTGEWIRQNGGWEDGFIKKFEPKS
UniProt Q8IBS5, whole entry: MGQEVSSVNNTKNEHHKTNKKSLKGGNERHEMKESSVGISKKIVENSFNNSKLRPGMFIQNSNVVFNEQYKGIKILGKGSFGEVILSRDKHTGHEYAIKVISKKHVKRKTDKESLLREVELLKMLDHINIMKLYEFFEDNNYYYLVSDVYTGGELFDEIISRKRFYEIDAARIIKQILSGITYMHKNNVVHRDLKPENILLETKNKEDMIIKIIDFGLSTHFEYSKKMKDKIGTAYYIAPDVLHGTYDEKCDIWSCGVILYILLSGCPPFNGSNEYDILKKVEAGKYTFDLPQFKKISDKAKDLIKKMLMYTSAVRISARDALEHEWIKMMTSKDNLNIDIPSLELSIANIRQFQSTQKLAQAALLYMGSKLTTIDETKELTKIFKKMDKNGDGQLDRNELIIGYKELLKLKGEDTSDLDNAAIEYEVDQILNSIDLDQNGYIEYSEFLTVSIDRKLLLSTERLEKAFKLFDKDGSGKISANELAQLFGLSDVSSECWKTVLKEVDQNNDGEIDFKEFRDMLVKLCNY
UniProt Q2FV99, 60-206 limits assumed: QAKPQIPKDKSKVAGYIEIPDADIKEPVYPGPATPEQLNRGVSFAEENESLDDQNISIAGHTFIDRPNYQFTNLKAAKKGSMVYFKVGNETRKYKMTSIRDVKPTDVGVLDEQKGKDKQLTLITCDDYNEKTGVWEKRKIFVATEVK
UniProt P18654, 399-740 limits assumed: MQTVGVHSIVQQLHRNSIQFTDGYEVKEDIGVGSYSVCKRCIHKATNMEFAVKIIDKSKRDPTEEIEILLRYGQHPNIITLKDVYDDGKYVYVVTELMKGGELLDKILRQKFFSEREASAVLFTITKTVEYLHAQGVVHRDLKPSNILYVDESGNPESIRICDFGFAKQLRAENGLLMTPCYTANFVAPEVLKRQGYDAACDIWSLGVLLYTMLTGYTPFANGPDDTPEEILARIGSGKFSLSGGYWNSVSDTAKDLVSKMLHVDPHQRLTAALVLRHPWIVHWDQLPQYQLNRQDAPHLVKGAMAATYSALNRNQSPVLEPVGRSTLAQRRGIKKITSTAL
UniProt O43148, whole entry: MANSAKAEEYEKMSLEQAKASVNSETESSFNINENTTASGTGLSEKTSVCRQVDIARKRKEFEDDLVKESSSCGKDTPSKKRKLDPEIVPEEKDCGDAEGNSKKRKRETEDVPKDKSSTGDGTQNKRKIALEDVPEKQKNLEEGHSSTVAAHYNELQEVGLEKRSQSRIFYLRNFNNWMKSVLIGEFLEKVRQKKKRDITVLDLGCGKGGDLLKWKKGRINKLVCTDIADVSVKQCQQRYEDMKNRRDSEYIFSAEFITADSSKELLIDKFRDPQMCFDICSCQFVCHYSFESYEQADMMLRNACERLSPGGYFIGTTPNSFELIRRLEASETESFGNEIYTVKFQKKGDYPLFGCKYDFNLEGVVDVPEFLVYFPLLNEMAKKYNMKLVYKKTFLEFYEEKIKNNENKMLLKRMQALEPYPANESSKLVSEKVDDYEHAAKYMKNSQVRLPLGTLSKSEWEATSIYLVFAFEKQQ
UniProt P25779, whole entry, looked up: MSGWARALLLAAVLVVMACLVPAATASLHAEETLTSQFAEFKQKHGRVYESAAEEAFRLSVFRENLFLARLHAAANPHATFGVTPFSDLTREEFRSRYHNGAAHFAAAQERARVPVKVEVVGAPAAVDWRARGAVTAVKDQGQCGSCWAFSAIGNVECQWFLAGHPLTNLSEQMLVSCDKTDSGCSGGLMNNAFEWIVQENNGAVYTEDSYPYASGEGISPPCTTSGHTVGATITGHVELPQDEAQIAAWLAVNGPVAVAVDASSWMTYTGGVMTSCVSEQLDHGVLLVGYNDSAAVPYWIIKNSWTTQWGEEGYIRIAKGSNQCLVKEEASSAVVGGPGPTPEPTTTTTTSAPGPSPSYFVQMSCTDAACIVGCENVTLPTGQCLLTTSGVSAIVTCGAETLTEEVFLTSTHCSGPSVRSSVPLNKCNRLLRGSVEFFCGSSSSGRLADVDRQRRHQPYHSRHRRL
UniProt P19650, whole entry: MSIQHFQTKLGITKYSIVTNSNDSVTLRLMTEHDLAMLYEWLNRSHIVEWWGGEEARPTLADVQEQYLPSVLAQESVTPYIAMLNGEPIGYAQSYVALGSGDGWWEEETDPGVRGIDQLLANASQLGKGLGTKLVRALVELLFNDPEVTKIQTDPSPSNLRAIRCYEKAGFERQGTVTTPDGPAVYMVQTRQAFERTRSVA

Compound	target or system	test	system	conditions	quantity	result
N=C(N)c1ccc(OCCSCCOc2ccc(C(=N)N)cc2)cc1	Grin1/Grin2a/Grin2b, MK-801 channel binding site (Rattus norvegicus, UniProt P35439+Q00959+Q00960)	–	–	pH 7	IC50	2.2 ± 0.32 µM
Cc1ccc(N=Nc2c(O)c(C(=O)O)cc3ccccc23)c(S(=O)(=O)O)c1	Bcl-2-related protein A1 (Mus musculus, UniProt Q07440, C113S/P104K)	binding, inhibitor, fluorescence polarization competition	–	3 µM Bfl-1/A1 protein, with: 375 nM FITC-Noxa peptide	IC50	387 µM
N=C(N)c1ccc(NCCCCCNc2ccc(C(=N)N)cc2)cc1	Glutamate NMDA receptor; Grin1/Grin2b, ifenprodil binding site (Grin1/Grin2b, Rattus norvegicus, UniProt P35439+Q00960)	–	–	pH 7.4	IC50	20.6 ± 5.4 µM
O=S(=O)(NC1CCN(Cc2cc(Cl)c3cccnc3c2O)CC1)c1ccccc1	KCNJ13 M125R	ion current, inhibitor, thallium flux	T-REx-HEK293	–	IC50	14.7 µM
O=c1[nH]c2sc3c(c2c(=O)n1O)CCCC3	Gag-Pol polyprotein, reverse transcriptase RNase H (gag-pol, Human immunodeficiency virus 1, UniProt P03366)	RNase H activity, inhibitor	–	with: HTS-1 RNA/DNA substrate	IC50	0.1 ± 0.02 µM
CCCCCCCCCCCN1[C@@H](COP(=O)(O)CP(=O)(O)O)[C@]1(C)CC/C=C(\C)CCC=C(C)C (relative stereo)	Squalene synthase ERG9	enzyme activity, inhibitor	–	pH 7.2, tetrabutylammonium salt, with: 100 µM [3H]FPP, no added pyrophosphate	IC50	no inhibition
CCC[C@@H](Nc1ccccc1)C12C=CC(O1)C(C(=O)OC)=C2C(=O)OC (some centres unmarked)	SUMO-activating enzyme subunit 2 with SAE1	SUMOylation, inhibitor, AlphaScreen	–	with: SUMO1-RanGAP1 conjugation	IC50	0.84 µM
C[C@H](CS)C(=O)N[C@H](Cc1c[nH]c2ccccc12)C(=O)O	Klebsiella pneumoniae	–	IMP-1 producing	25 µM, with: meropenem	MIC of meropenem	1 µg/mL
Cc1ccc(C(C)C)cc1Oc1nccc(-c2c(-c3ccc(C(F)(F)F)cc3)ncn2[C@H]2CC[C@@H](N)C2)n1	Bromodomain-containing protein 4, BD1 (BRD4, Homo sapiens, UniProt O60885)	–	–	–	IC50	0.067 ± 0.018 µM
O=C(NO)c1c(F)ccc(F)c1F	hdac6 CD2 catalytic domain	enzyme activity, inhibitor, fluorogenic	–	30 min, with: Ac-RHK(Ac)K(Ac)-AMC	IC50	> 20 µM
NCc1ccc(-c2ncc(OCC3CCNCC3)nc2-c2ccc3[nH]ccc3c2)cc1	pol NS2B-NS3 protease	enzyme activity, inhibitor	–	dengue virus type 3 NS2B-NS3 protease	IC50	0.54 ± 0.01 µM
COc1ccc(C(=O)NC2CCN(Cc3cc(Cl)c4cccnc4c3O)CC2)cc1	KCNJ13 M125R	ion current, inhibitor, thallium flux	T-REx-HEK293	–	IC50	10.1 µM
c1ccc(-c2ccc3c(n2)sc2c(N4CCNCC4)ncnc23)cc1	Beta-glucuronidase	enzyme activity, inhibitor	–	–	IC50	0.52 ± 0.09 µM
COc1cc(C)cc(Sc2cc(C(=O)N3Cc4ccccc4C3)ccc2O)c1	HSP90AA1	binding, fluorescence polarization	–	with: FITC-geldanamycin tracer	IC50	0.9 ± 0.02 µM
C=CCOc1ccc2cc(-c3nn(C(C)C)c4ncnc(N)c34)ccc2c1	Calcium-dependent protein kinase 4 (Plasmodium falciparum, UniProt Q8IBS5)	kinase activity, inhibitor, Kinase-Glo luminescence	–	–	IC50	< 0.02 µM
O=C(O)COc1c(SSc2cnn(-c3ccccc3)c(=O)c2OCC(=O)O)cnn(-c2ccccc2)c1=O	srtA (Staphylococcus aureus, UniProt Q2FV99)	inhibitor	–	–	IC50	2.2 ± 0.2 µM
COC(=O)C1=C(C(=O)OC)C2([C@@H](C)Nc3ccc(OC)cc3)C=CC1O2 (some centres unmarked)	SUMO-activating enzyme subunit 2 with SAE1	SUMOylation, inhibitor, AlphaScreen	–	with: SUMO1-RanGAP1 conjugation	IC50	55.2 µM
Cc1ccc(-c2c(C=C(C#N)c3ccc(C#N)cc3)n(CCCO)c3ncnc(N)c23)cc1	Ribosomal protein S6 kinase alpha-3, C-terminal kinase domain (Rps6ka3, Mus musculus, UniProt P18654)	kinase activity, inhibitor	–	C-terminal kinase domain	IC50	0.77 µM
CO[C@H]1[C@H](O[C@H]([C@H]2O[C@@H](n3ccc(=O)[nH]c3=O)[C@H](O)[C@@H]2O)[C@H](NCCCNC(=O)[C@@H](NC(=O)[C@@H](NC(=O)N[C@H](C(=O)O)C(C)C)[C@@H]2CCNC(=N)N2)[C@@H](OC(=O)CCCCCCCCCCCCN(O)C(=N)N)C(C)C)C(N)=O)O[C@H](CN)[C@H]1O	Undecaprenyl-phosphate alpha-N-acetylglucosaminyl 1-phosphate transferase (wecA, Escherichia coli, UniProt P0AC78)	enzyme activity, inhibitor	–	–	IC50	0.085 ± 0.002 µM
CNc1nc(N2CCNCC2)c2sc3nc(-c4ccccc4)ccc3c2n1	Beta-glucuronidase	enzyme activity, inhibitor	–	–	IC50	0.72 ± 0.08 µM
NCc1ccc(-c2ncc(OCC3CCNCC3)nc2-c2ccc(-c3ccoc3)cc2)cc1	pol NS2B-NS3 protease	enzyme activity, inhibitor	–	dengue virus type 3 NS2B-NS3 protease	IC50	0.52 ± 0.06 µM
CNc1nc(N2CCNCC2)c2sc3ncccc3c2n1	uidA	enzyme activity, inhibitor	–	–	IC50	0.009 ± 0.002 µM
COc1ccc(CN[C@@H]2CO[C@H](C(c3ccccc3)c3ccccc3)C[C@H]2O)cc1	HTR2B (Homo sapiens, UniProt P41595)	radioligand binding	–	10 µM, with: [3H]LSD	inhibition	46.3%
N#Cc1cccc(C(=O)NC2CCN(Cc3cc(Cl)c4cccnc4c3O)CC2)c1	KCNJ13 M125R	ion current, inhibitor, thallium flux	T-REx-HEK293	–	IC50	12.4 µM
CC(C)Cc1cc(C(=O)O)nc(O)n1	Metallo-beta-lactamase type 2 (Serratia marcescens, UniProt P52699)	–	–	10 min preincubation, with: FC5 fluorogenic substrate	IC50	> 1000 µM

Compound	target or system	test	system	conditions	quantity	result
Cc1cccc(CN2CCN(C(c3ccccc3)c3ccc(Cl)cc3)CC2)c1 (centres unmarked)	RNMT (Homo sapiens, UniProt O43148)	enzyme activity, inhibitor	–	–	IC50	8.8 ± 0.6 µM
O=C(c1ccc(O)c(Sc2ccccc2)c1)N1Cc2ccccc2C1	HSP90AA1	binding, fluorescence polarization	–	with: FITC-geldanamycin	IC50	~4.8 µM
COc1ccc(C(SC[C@H](N)C(=O)NCCOCCNC(=O)c2ccc(-c3c4ccc(=N)c(S(=O)(=O)O)c-4oc4c(S(=O)(=O)O)c(N)ccc34)c(C(=O)O)c2)(c2ccccc2)c2ccccc2)cc1	KIF11 (Homo sapiens, UniProt P52732)	microtubule-stimulated ATPase activity, inhibitor	–	–	IC50	0.73 µM
CC1=C([C@H](O)CC(=O)O[C@H](C)[C@@H](C)[C@H](O)CC(=O)[C@@H](C)[C@@H](O)CCCCCOC(=O)CC(C)C)C(=O)OC1=O	PPP1CA (Oryctolagus cuniculus, UniProt P62139)	enzyme activity, inhibitor, malachite green	–	30 °C, with: phosphopeptide KRpTIRR 40 µM	IC50	0.1 ± 0.01 µM
COC(=O)C1=C(C(=O)OC)C2([C@H](Cc3ccccc3)Nc3ccc(OC)cc3)C=CC1O2 (some centres unmarked)	SUMO-activating enzyme subunit 2 with SAE1	SUMOylation, inhibitor, AlphaScreen	–	with: SUMO1-RanGAP1 conjugation	IC50	12.7 µM
NC(=O)c1cc(Sc2cccc(C(F)(F)F)c2)nc2ccccc12	CDPK1	kinase activity, inhibitor, ELISA	–	with: syntide-2 substrate, ATP 25 µM	IC50	> 20 µM
COc1ccc2c(c1)c(CC(=O)NCCCCNC(=O)CCC(=O)OC1CCCCC1)c(C)n2C(=O)c1ccc(Cl)cc1	PTGS2 (Homo sapiens, UniProt P35354)	enzyme activity, inhibitor	1483 HNSCC cells	–	IC50	0.2 µM
CC(C)COC(=O)NC1CCN(Cc2cc(Cl)c3cccnc3c2O)CC1	KCNJ13 M125R	ion current, inhibitor, thallium flux	T-REx-HEK293	–	IC50	4.1 µM
CC(C)=CCC/C(C)=C/CCCCN1[C@@H](COP(=O)(O)OP(=O)(O)O)[C@]1(C)CC/C=C(\C)CCC=C(C)C (relative stereo)	Squalene synthase ERG9	enzyme activity, inhibitor	–	pH 7.2, tetrabutylammonium salt, with: 100 µM [3H]FPP, no added pyrophosphate	IC50	7.2 ± 0.8 µM
O=C(CNC(=O)C1CCCCC1)OC(C(=O)c1ccccc1)c1ccccc1 (centres unmarked)	Cruzipain (Trypanosoma cruzi, UniProt P25779)	enzyme activity, inhibitor	–	–	IC50	0.03 µM
O=C(NO)c1ccccc1F	hdac6 CD2 catalytic domain	enzyme activity, inhibitor, fluorogenic	–	30 min, with: Ac-RHK(Ac)K(Ac)-AMC	IC50	> 20 µM
OCCNc1nc(N2CCNCC2)c2sc3nc(-c4ccccc4)ccc3c2n1	uidA	enzyme activity, inhibitor	–	–	IC50	0.041 ± 0.009 µM
COc1cc(C(=O)N2CCC(Cc3ccccc3)CC2)ccc1OC(=O)N(C)C	Cholinesterase (BCHE, Equus caballus, UniProt P81908)	enzyme activity, inhibitor, Ellman	–	–	IC50	1.6 ± 0.02 µM
O=C(Nc1ccccc1)NC1CCN(Cc2cc(Cl)c3cccnc3c2O)CC1	KCNJ13 M125R	ion current, inhibitor, thallium flux	T-REx-HEK293	–	IC50	15.8 µM
CO[P@@]1(=O)OC[C@H]2COC(=O)C2=C(C)O1 (relative stereo)	ACHE (Homo sapiens, UniProt P22303)	enzyme activity, inhibitor, modified Ellman	–	racemate	IC50	~0.04 µM and 0.04 µM
COc1cccc(Sc2cc(C(N)=O)c3ccccc3n2)c1	CDPK1	kinase activity, inhibitor, ELISA	–	with: syntide-2 substrate, ATP 25 µM	IC50	> 20 µM
O=C(NCCN1CCC2(CC1)NCNC2=O)c1ccc2ccccc2c1	Phospholipase D1 (Homo sapiens, UniProt Q13393)	enzyme activity, cell-based	–	–	IC50	> 30 µM
NCc1ccc(-c2ncc(NCC3CCNCC3)nc2-c2ccc(-c3ccoc3)cc2)cc1	pol NS2B-NS3 protease	enzyme activity, inhibitor	–	dengue virus type 3 NS2B-NS3 protease	IC50	0.21 ± 0.07 µM
NCCNCCSc1ccccc1	–	shake flask	simulated gastric fluid	24 h, pH 1.2, 37 °C	solubility	747 ± 30 mg/mL (≈ 3810 mM)
CCOC(CNCc1ccc2[nH]c3c(C)c4ccncc4c(C)c3c2c1)OCC	Toll-like receptor 3 (Homo sapiens, UniProt O15455)	reporter gene, SEAP reporter	HEK-Blue hTLR3	with: poly(I:C)	IC50	0.24 ± 0.02 µM
COC(=O)C1=C(C(=O)OC)C2([C@@H](C)Nc3ccccc3)C=CC1O2 (some centres unmarked)	SUMO-activating enzyme subunit 2 with SAE1	SUMOylation, inhibitor, AlphaScreen	–	with: SUMO1-RanGAP1 conjugation	IC50	7.67 µM
O=c1ccn([C@@H]2O[C@H](COP(=O)(O)OP(=O)(O)OP(=O)(O)O)[C@@H](O)[C@]2(F)Br)c(=O)[nH]1	Genome polyprotein, NS5B polymerase (Hepatitis C virus genotype 6a, UniProt O39927)	polymerase activity, inhibitor	Hepatitis C virus, genotype 6a	–	IC50	0.59 µM
NC[C@@H](NC[C@@H]1CCCN1C[C@@H](CO)NC[C@@H](NCCc1ccc(-c2ccccc2)cc1)c1ccccc1)c1ccccc1	Aminoglycoside N(6')-acetyltransferase type 1 (aacA4, Klebsiella pneumoniae, UniProt P19650)	acetyltransferase activity, inhibitor	–	–	IC50	3 µM
c1nc(N2CCNCC2)c2sc3nc(N4CCOCC4)ccc3c2n1	uidA	enzyme activity, inhibitor	–	–	IC50	0.02 ± 0.01 µM
COC(=O)[C@@H](CS)N1C(=O)c2ccc(N(C)C)cc2C1=O	blaNDM-1 (Klebsiella pneumoniae, UniProt C7C422)	enzyme activity, inhibitor	–	with: chromacef 20 µM	IC50	6.3 ± 0.2 µM

For quick reference, copied from above:
Compound	target or system	test	system	conditions	quantity	result
CC(C)=CCC/C(C)=C/CCCCN1[C@@H](COP(=O)(O)OP(=O)(O)O)[C@]1(C)CC/C=C(\C)CCC=C(C)C (relative stereo)	Squalene synthase ERG9	enzyme activity, inhibitor	–	pH 7.2, tetrabutylammonium salt, with: 100 µM [3H]FPP, no added pyrophosphate	IC50	7.2 ± 0.8 µM
NCc1ccc(-c2ncc(OCC3CCNCC3)nc2-c2ccc3[nH]ccc3c2)cc1	pol NS2B-NS3 protease	enzyme activity, inhibitor	–	dengue virus type 3 NS2B-NS3 protease	IC50	0.54 ± 0.01 µM
CC(C)Cc1cc(C(=O)O)nc(O)n1	Metallo-beta-lactamase type 2 (Serratia marcescens, UniProt P52699)	–	–	10 min preincubation, with: FC5 fluorogenic substrate	IC50	> 1000 µM
O=S(=O)(NC1CCN(Cc2cc(Cl)c3cccnc3c2O)CC1)c1ccccc1	KCNJ13 M125R	ion current, inhibitor, thallium flux	T-REx-HEK293	–	IC50	14.7 µM
CCC[C@@H](Nc1ccccc1)C12C=CC(O1)C(C(=O)OC)=C2C(=O)OC (some centres unmarked)	SUMO-activating enzyme subunit 2 with SAE1	SUMOylation, inhibitor, AlphaScreen	–	with: SUMO1-RanGAP1 conjugation	IC50	0.84 µM
